Assay results pooled from the literature.
Numbered parts are unrelated; each lists some results of a single study. Changes are numbered by the printed parent chain.

Series 1
Target: CCND2, cyclin fold, Cln2 fusion (human)
Method: yeast growth competition, sequencing
Sample: yeast
Setting: weak parent motif
Reference: not given
Reading: higher = stronger binding
Measurement: normalised enrichment score
Starting sequence: E2F1 docking peptide (human); PPVKRRLDLETDH
Substitution = D12E; result = 0.401
Substitution = H13A; result = 0.0821
Substitution = E10R; result = 0.113
Substitution = T11Y; result = 0.68
Substitution = T11Q; result = 0.061
Substitution = P1W; result = 0.388
Substitution = P2N; result = 0.212
Substitution = H13E; result = 0.384
Substitution = H13L; result = 0.329

Series 2
Target: ABI1, truncated, D143A, DHFR fusion (Arabidopsis thaliana)
Method: DHFR PCA, deep sequencing
Sample: yeast
Setting: methotrexate growth selection, single substitutions
Added: (+)-ABA 4.8 µM
Reference: wild-type fitted maximum
Reading: higher = stronger binding
Measurement: relative binding score
Starting sequence: PYL1, truncated, DHFR fusion (Arabidopsis thaliana); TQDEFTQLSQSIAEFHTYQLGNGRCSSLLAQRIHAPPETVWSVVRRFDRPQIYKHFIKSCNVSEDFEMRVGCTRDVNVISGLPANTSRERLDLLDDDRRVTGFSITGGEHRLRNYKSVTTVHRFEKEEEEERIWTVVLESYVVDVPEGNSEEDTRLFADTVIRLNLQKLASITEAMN
Substitution = R132E; result = 97.4%
Substitution = I12H; result = -6.95%
Substitution = G107S; result = 37.5%
Substitution = V76D; result = -5.4%
Substitution = S104I; result = 9.81%
Substitution = V78H; result = 18.5%
Substitution = L8M; result = 55.1%

Series 3
Molecule: PhoQ, residues 284 288 289 292 302 303 ASVMEA
Method: Sort-seq
Item: YFP reporter
Sample: E. coli
Setting: PhoQ-PhoP variant library
Added: 10 µM Mg2+
Reference: high Mg2+ state
Reading: higher = stronger signaling
Measurement: fold induction
target = PhoP, residues 12 14 15 18 19 LHTVL (Escherichia coli, UniProt P23836); result = 32.4
target = PhoP, residues 12 14 15 18 19 NQCAL (Escherichia coli, UniProt P23836); result = 17.7
target = PhoP, residues 12 14 15 18 19 TQAML (Escherichia coli, UniProt P23836); result = 19.7

Series 4
Target: RNA binding protein fox-1 homolog 2, RRM domain, GST-SBP tag (RBFOX2, Homo sapiens, UniProt O43251-10, residues 100-194)
Method: RNA Bind-n-Seq
Form: RNA
Sample: in vitro
Tested at: 365 nM
Setting: natural RNA segment, single round, ends assumed
Reference: no-protein control
Reading: higher = stronger binding
Measurement: RBNS enrichment (R)
Target sequence (chain): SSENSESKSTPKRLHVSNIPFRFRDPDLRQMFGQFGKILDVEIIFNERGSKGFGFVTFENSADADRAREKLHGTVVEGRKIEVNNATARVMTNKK
Oligonucleotide = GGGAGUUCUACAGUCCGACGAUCAGUGCUGUUUGCUUUUAGGUCUGGGUGCUCAGGGGCCCUCACUGAUACAAGAGCCCAUCUCUUCUCCUCACCUCACUGGAGCCACAGAAGCCAGGCAGCAGCUACAGGAGUGGAAUUCUCGGGUGCCAA; result = 0.434
Oligonucleotide = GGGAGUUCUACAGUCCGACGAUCAAUGAACUUUAACAUUUUAGUCCAAUGUGACUAGUCAAAUAAACCAAAUAAACUGAGUAUUUUGUCUAAUUUUUGGGAUUGUAUAUUUCUCAGCUGGGUCACAGGUUUGGUGGAAUUCUCGGGUGCCAA; result = 0.439
Oligonucleotide = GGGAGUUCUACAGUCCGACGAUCCCCCUCCCCCAGCCCCCAGAAACUCAGUUCAGCUCUCAGAGAAGCAGGUGAAUCAUAAAGUCAGUGAAGACGCCGCCCUCUGAUUCUCCCCACUGUAGGGGGAAGGAAGGUGGAAUUCUCGGGUGCCAA; result = 0.52
Oligonucleotide = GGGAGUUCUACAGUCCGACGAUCUCUGUGGAGCUGUAGUUCUGAUGGAAGGAGCUGUGCCCACCCUGUACACUUGGCUUCCCCCUGCAACUGCAGGGCCGCUUCUGGGGCCUGGACCACCAUGGGGAGGAAGAUGGAAUUCUCGGGUGCCAA; result = 0.326
Oligonucleotide = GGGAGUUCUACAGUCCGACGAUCCAGGAAAUGAUACCCAGAACUAUGAUCGUGAUAGAGUCGAGUGUCCAACUACCUUCACAGCACCCAGUGAUCAAGGUGAUGACGGUUGAGAACCUGAAAGUGCAUACUGAUGGAAUUCUCGGGUGCCAA; result = 0.404
Oligonucleotide = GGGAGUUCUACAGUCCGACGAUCGGAGCCAGACAUUGGGAUGCACGCAUGUGAUUGUGUGUGCACGCAUGUGUGUGUGUGCACGCACUGGGCUGGGCCAAGUGACUGGACUCGCUUGGGAAACGGGCAGUGGUUGGAAUUCUCGGGUGCCAA; result = 9.86
Oligonucleotide = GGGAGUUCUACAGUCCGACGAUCAUGAAAGUGCAAGUCUUUAUUAAUUUGGAUUGCCUGAACAGUGUAUCCCAUGAUGAUGAAGGAAAAUGGAGAGAUUUUUCUUUUUAACUCUGCUGGUCAGAGAUGAAGCCUGGAAUUCUCGGGUGCCAA; result = 0.778
Oligonucleotide = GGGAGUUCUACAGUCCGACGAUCCCUAAAGACGGAUGAAUGAGUCUCUGUGGUGUUGCCUGCUCAUUGUGCAUACCCUUGGUAGACAUUUCUCAUAGUGUGUACUUAAAAAGUGCCUGACAUUGAUUUGUGUUUGGAAUUCUCGGGUGCCAA; result = 0.751
